# Assay results from different studies.
# A part holds a random share of what one study measured. Changes are numbered by the printed parent chain.

# Series 1
# Cell line: yeast with cyclin B3-Cln2 chimera
# Read-out: cell growth
# Action: binder
# Technique: competitive growth deep sequencing
# Form: peptide
# Tested at: concentration not given
# Setting: peptide tiling library
# Direction: direction not given
Sequence,growth enrichment score
IQKKLRFEDTLEFVGF,-0.376
KPKPVKPVTFSTGIKM,-0.818
RDLFDCDFGDLTPLDF,0.245
GLPDFVFQQQPVESEA,0.331
VEEEFFALRKRTPSAG,0.882
KPHVSDEEEEEPPFYH,1.08
CFRCLLFSFSGRSGVE,-0.938
ALLRRLQDVANDRGSH,-0.147
EPKTLFLGAGDFQF,0.712
ESSTVSEEDYFSSHRD,0.173
RSLKLDGLLEEN,-2.52
QYQVVDDIVSKLVFDF,0.611
ARKRLELGNLGNPQ,-0.812
DKYDEGLYRFNSLNDL,0.192
LRRKLFLDGNGSIS,0.448

# Series 2
# Target: ABI1, truncated, D143A, DHFR fusion (Arabidopsis thaliana)
# Technique: DHFR PCA, deep sequencing
# Medium: yeast
# Setting: methotrexate growth selection, single substitutions
# With: (+)-ABA 0.032 µM
# Baseline: wild-type fitted maximum
# Direction: higher = stronger binding
# Starting sequence: PYL1, truncated, DHFR fusion (Arabidopsis thaliana); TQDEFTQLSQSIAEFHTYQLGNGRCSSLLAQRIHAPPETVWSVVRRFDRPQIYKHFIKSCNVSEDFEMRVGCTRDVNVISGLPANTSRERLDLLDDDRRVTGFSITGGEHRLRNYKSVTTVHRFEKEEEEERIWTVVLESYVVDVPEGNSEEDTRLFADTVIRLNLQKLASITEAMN
Substitution,relative binding score [%]
H110Y,18.4
E64A,34.6
F47T,-1.24
S26T,24.7
A30H,11.2
G107A,22.1
V40N,-9.74
S87W,28
L94I,7.76
R69P,2.98
R155L,5.4
L82N,12
R99E,-3.25
N85H,63.2
R32S,15.5
N61M,21.8
V100S,-1.04
E147F,6.79
T86Y,24.8
E38Y,-2.2
T17C,2.8
L8R,0.929
T106W,2.69
V62P,-3.13
E14T,3.04

# Series 3
# Target: Histone acetyltransferase KAT6A, winged helix 2, GST fusion (KAT6A, Homo sapiens, UniProt Q92794, residues 85-181)
# Technique: protein binding microarray
# Form: double-stranded DNA, one strand shown
# Medium: in vitro
# Tested at: not given
# Setting: 8-mer, flanks averaged, mean of 2 arrays, mostly near background
# Baseline: not given
# Direction: higher = stronger binding
# Construct (chain): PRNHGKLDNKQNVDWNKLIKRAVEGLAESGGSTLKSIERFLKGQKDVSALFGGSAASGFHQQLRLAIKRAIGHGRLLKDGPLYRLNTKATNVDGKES
Oligonucleotide,E-score
GCTGAAAA,0.114
GGACGTCA,-0.205
CTCAACCC,-0.00327
AGTCGTTA,-0.263
TATCAATA,0.114
GAAGCAAC,0.164
GGTAGCAC,-0.0146
AAAGAGAA,0.0534
ACGCTTCA,-0.0801
ACACGCAG,-7.5e-05
ACTCTAGG,-0.0512
CTCTGGAC,0.0369
ATATGGGC,-0.0691
CAATAAAC,0.141
TCTATTCA,-0.0313
GGATGGAC,-0.0803
ACACAGCC,0.00859
CCGCCGAG,0.249
CATGAGCC,0.0138
CCCTCTGA,0.207
GAATACTC,-0.0723
GCTACAGA,-0.154
AAATTCGA,0.047
GCAGCGGC,0.172
AAGTAGAT,0.000105

# Series 4
# Target: RING finger protein unkempt homolog, zinc fingers 1-6, GST-SBP tag (UNK, Homo sapiens, UniProt Q9C0B0, residues 30-357)
# Technique: RNA Bind-n-Seq
# Form: RNA
# Medium: in vitro
# Tested at: not given
# Setting: RNA with constant flanks, human and mouse sites, ends assumed
# Baseline: input RNA pool
# Direction: higher = stronger binding
# All sequences stand within: GGGAGUUCUACAGUCCGACGAUC … CAACAGAGGAUUGAGCAUCA
# Construct (chain): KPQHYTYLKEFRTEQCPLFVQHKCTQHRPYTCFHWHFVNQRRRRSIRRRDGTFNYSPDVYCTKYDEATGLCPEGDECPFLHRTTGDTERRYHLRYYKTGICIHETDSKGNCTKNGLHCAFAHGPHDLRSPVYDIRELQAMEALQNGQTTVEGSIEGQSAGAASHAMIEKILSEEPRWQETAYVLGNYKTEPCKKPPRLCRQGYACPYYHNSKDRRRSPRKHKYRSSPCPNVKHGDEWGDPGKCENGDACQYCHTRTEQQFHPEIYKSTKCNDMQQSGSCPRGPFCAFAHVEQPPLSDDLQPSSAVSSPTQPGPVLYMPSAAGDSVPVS
Oligonucleotide,bound/input enrichment [ratio]
CGCCUGGAUGAGGCUGGUGUUACUGAUGAAGUGCUGGAUUCUGCCAUGCAAGCCUUCUUACUAGAAAUUAUCGUUAAGCAUGGGGAGCCAGCCCCUUAUUUAUGUAAUAAAGAUCCUUUU,0.359
ACAAGGCAAAGCCUGCUCUCUCUGUCUCUCUGUCUCCUCUUCUCCUUUUUUGCCUUAUUCUAUCCGAUUUUUUCCCUAAGCUUCUACCUGGGAUUUUCCUUUGGAAAAGUCUCUGAGGUU,0.219
UUGUUUUGUUUUGUUUUUGAGACAGAGUCUUGCCCAGGCUUAAACUUCAGCUCCACCUGCCUUAGCCUGUUGGGAUUCAUUUUCUUUAACUCACAAAGAGUAUGCAGAGUAAGCCCCAGU,0.26
AAUGAAUCACUGAACAACCUCUUUAUUACUGAAGAAGAUUACCAGGCUCUGCGAACAUCAAUAGAUGCUUAUGACAACUUUGACAACAUCUCACUUGCUCAGCGUUUGGAAAAACACGAA,0.107
CUAGACUUCAAUAAGAAAAUCCUUCACACAGCCUGGCACCCCAAGGAAAAUAUCAUUGCCGUAGCUACUACAAACAAUCUGUAUAUAUUUCAAGACAAAGUGAAUUAGGGUUGGCAUUCC,0.776
GAUGAUGUAGCAGAAGCAGAUAUAAUUUCUACAGUAGAAUUUAAUCAUUCUGGAGAAUUACUAGCAACAGGAGAUAAAGGUGGUAGAGUUGUCAUCUUUCAACAGGAGCAGGAGAACAAA,0.582
CACAGCAGUUGACAGCAAGAUGGAGAAGUAUGGCUGACCCCACCCAGUGCCUAGGAGGCAAAUGCAUGAGAGCCUGAGGUGUUUGAUAGGAGCAGGCCACCCAGUGUAUCUGCAAGUGAU,0.134
GAAGCAGAUAAGUGGAGCACGUUGAGCGCCGAUAUUGAGGAGACAUUUAAGACUCAGGACAUAGCUGUGAUUUCUGCCAAGCUAACAGGUAUGCAGAACAGCUUAAUGAUGCUUGUUGAU,0.127
GUCAACAUUAAGAAACAAAUCAUAUUGUGUAUGGAAGAAUUAGAACACUCUCCAGAUACAAGCUUUGAAAGAGAUGUGGUGUGUGAAGAUGAAAGUGCUUUUUGUUUAUCACUGGAGAAC,0.284
UGACGUGUCUCACUAUGAACUGCAAGUGGAGAUAGGAAGAGGGUUUGACAACUUGACCUCUGUUCAUCUUGCACGGCACACUCCUACAGGAACACUGGUAACUGUAAAGAUUACAAACCU,0.0722
CUUUCUUCCUCACCAGAGUAUGGGGCAGAGAUAAUAAUGGACAUCAAUACAGCUGGUAUUGAUAUGCCCAUGUUUUCUGCUUUGUUACACUACCUUUAUACAGGAGAGUUUGGAAUGGAG,0.118

# Excerpt of the above (series 3):
Oligonucleotide,E-score
ACACAGCC,0.00859
CCGCCGAG,0.249
CATGAGCC,0.0138
CCCTCTGA,0.207
GAATACTC,-0.0723
GCTACAGA,-0.154
AAATTCGA,0.047
GCAGCGGC,0.172
AAGTAGAT,0.000105
